Published values collected from several papers.
Each numbered part is a random draw from the data of one study; scales do not carry over between parts. Positions count from the first letter of the parent shown.

Study 1 — target: CCNF, cyclin fold, Cln2 fusion (human); technique: yeast growth competition, sequencing; matrix: yeast; notes: strong parent motif; reference: not given; direction: higher = stronger binding
Starting sequence: MICAL3 docking peptide (human); LQLRRQLSFSEDS
Substitution | normalised enrichment score
LQKRRQLSFSEDS [L3K] | 0.56
LQMRRQLSFSEDS [L3M] | 3.49
LMLRRQLSFSEDS [Q2M] | 4.94
LQLRRQLSCSEDS [F9C] | 0.423
LQLRRQLSFSEKS [D12K] | 4.78

Study 2 — technique: aptamer microarray, sandwich; form: DNA with 2'F-ANA; matrix: in vitro; tested at: 200 nM; added: Cy3 exosite-II aptamer, 400 nM; direction: higher = stronger binding; oligonucleotide: GGTTGGTGTGGTTGG
Target: Prothrombin, mature alpha-thrombin (F2, Homo sapiens, UniProt P00734)
Notes: whole 15-mer aptamer, many near background
Modification | mean fluorescence intensity [a.u.]
2'F-ANA at 3 9 10 11 13 14 | 405
2'F-ANA at 1 3 4 7 10 15 | 62.2
2'F-ANA at 3 5 6 7 8 9 10 11 12 13 | 60.7
2'F-ANA at 1 4 6 8 9 12 13 15 | 601
2'F-ANA at 3 4 6 7 8 12 13 15 | 674
2'F-ANA at 3 9 12 13 15 | 1080
2'F-ANA at 1 6 8 9 10 13 | 47.8
2'F-ANA at 3 5 6 8 9 10 12 14 15 | 70.1

Study 3 — technique: DHFR PCA, deep sequencing; matrix: yeast; added: (+)-ABA 0 µM; reference: wild-type fitted maximum; direction: higher = stronger binding
Target: ABI1, truncated, D143A, DHFR fusion (Arabidopsis thaliana)
Notes: methotrexate growth selection, single substitutions
Starting sequence: PYL1, truncated, DHFR fusion (Arabidopsis thaliana); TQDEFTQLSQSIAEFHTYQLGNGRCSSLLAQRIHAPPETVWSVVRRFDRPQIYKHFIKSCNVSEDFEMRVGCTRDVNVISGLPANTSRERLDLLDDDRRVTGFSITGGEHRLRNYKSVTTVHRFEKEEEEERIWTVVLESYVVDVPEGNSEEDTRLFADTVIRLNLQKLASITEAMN; partner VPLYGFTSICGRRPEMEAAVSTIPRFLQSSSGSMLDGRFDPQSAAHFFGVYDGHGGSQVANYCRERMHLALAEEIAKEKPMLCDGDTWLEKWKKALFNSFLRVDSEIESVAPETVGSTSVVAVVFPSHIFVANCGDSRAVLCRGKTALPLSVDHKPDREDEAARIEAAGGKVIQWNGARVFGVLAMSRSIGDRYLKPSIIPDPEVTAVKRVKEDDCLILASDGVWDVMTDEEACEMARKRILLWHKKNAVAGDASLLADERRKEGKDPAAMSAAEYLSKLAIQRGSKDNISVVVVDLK
Substitution | relative binding score [%]
C25D | 0.0123
D96E | 34.9
S117I | -7.81
A84T | 23.9
S9Q | 56.4
G148C | 5.88
L156H | 0.697
E139I | -16.5
N165P | 6.5

Single results of other studies
Molecule | target | test | system | conditions | how to read | endpoint | value
PhoQ, residues 284 288 289 292 302 303 SSLVEF | PhoP, residues 12 14 15 18 19 LHTVM (Escherichia coli, UniProt P23836) | Sort-seq, measured: YFP reporter | E. coli | PhoQ-PhoP variant library, added: 10 µM Mg2+ | reference: high Mg2+ state, higher = stronger signaling | fold induction | 16.4

For quick reference, copied from above (study 3):
Substitution | relative binding score [%]
C25D | 0.0123
D96E | 34.9
